Assay results pooled from the literature.
Every numbered part comes from another study and shows a few of its results, in no order. Positions count from the first letter of the parent shown.

Block 1
Target: Histone acetyltransferase KAT6A, winged helix 1, GST fusion (KAT6A, Homo sapiens, UniProt Q92794, residues 1-85)
Technique: protein binding microarray
Form: double-stranded DNA, one strand shown
Matrix: in vitro
Tested at: not given
Notes: 8-mer, flanks averaged, mean of 2 arrays, mostly near background
Baseline: not given
Reading: higher = stronger binding
Residues (chain): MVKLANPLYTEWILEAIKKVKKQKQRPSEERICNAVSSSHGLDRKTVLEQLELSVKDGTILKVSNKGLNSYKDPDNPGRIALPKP
The E-score of `GTTAACGA` is reported as -0.0209.
For `CATGGGAG`, the E-score was -0.17.
`CTTATGTA` has an E-score of -0.253.
The E-score of `ACACAAAC` is reported as -0.126.
With `CAATTCAG` the E-score was -0.2.
`CACAGATC` gave an E-score of -0.0276.
With `CTCCTGAC` the E-score was -0.0478.
`GGAGCTCC` gave an E-score of 0.0471.
For `CCACCATA`, the E-score was -0.123.
For `AACGAGAT`, the E-score was -0.142.
The E-score of `CAATTTCC` is reported as 0.0307.
`ATGGGAAG` has an E-score of -0.244.
With `AACGCTAC` the E-score was 0.0245.

Block 2
Target: Ras GTPase-activating protein-binding protein 1, full length (G3BP1, Homo sapiens, UniProt Q13283)
UniProt Q13283, sequence (whole entry, looked up): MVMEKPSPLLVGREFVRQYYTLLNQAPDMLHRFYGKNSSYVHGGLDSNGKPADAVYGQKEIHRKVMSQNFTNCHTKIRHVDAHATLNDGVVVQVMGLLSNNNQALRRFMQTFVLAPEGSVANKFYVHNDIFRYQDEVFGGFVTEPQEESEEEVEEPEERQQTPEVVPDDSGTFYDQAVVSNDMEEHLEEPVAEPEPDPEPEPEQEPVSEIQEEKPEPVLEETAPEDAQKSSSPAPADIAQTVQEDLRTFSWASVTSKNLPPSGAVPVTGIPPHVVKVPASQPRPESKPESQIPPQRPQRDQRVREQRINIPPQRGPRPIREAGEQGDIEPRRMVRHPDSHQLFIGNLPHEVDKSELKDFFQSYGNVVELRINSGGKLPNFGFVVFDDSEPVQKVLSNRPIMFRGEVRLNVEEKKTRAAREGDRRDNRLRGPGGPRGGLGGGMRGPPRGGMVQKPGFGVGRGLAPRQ
Technique: RNA Bind-n-Seq
Form: RNA
Matrix: in vitro
Tested at: 200 nM
Notes: whole 134-nt RNA, ends assumed
Added: 150 mM LiCl
Baseline: input library
Reading: higher = stronger binding
Library: 7-deaza-guanosine replaces G
The log2 enrichment of `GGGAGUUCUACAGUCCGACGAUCAAGUCCUGUGCUACACAUCGUAUGUACCGAAUCGGGAAAGGGAGGGAAAAAAAGGGAAAGUAUUAUGUUACGCCGUUCGGAUCUGCACUUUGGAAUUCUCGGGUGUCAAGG` is reported as 0.484.
`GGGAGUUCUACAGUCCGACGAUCUCCUGUGCUACACAUCGUAUGUACCGAAUCGGGCCCCCCGGGGCCCCCCGGGCCCCCCGGAAAGUAUUAUGUUACGCCGUUCGGAUCUGCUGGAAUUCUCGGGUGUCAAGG` gave a log2 enrichment of -1.33.
`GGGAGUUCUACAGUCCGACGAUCAAGUCCUGUGCUACACAUCGUAUGUACCGAAUCGGUUUUUUUGGUUUUUUUGGAGGAAAGUAUUAUGUUACGCCGUUCGGAUCUGCACUUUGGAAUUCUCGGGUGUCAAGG` gave a log2 enrichment of -0.421.
`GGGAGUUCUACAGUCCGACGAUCCACAGACAACACGCACCCACAUAGACACAGAGGGAAGGGGUUGGGAUGGGGACAGGGUGCACAGCAGGGCGGGGUAGGACCCCAGCCCCUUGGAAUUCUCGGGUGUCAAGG` has a log2 enrichment of 0.282.
With `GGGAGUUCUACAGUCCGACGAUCGCAGGAAGUAAAAACAAAUGGAAAUGCUUCGGAUAGUGGCAGGGGUGGGGGUUGCUAAGGAAAGGGUGGGAUGGGAGUGGGUAAAGAUUUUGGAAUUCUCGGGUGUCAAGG` the log2 enrichment was 0.125.
`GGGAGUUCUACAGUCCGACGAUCUCAAGUCCUGUGCUACACAUCGUAUGUACCGAAUCGGAAAGGAAAGGUUUUUGGAAAGUAUUAUGUUACGCCGUUCGGAUCUGCACUUCCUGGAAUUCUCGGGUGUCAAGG` gave a log2 enrichment of -0.388.
`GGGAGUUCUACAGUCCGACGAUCCUGUGCUACACAUCGUAUGUACCGAAUCAAAGUGUGUGUGUGUGUAAAGUGUGUGUGUAAAAAAGUAUUAUGUUACGCCGUUCGGAUCUGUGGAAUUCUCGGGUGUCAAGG` has a log2 enrichment of -1.32.
For `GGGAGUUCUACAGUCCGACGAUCAAGUCCUGUGCUACACAUCGUAUGUACCGAAUCGGGGAAAAGGAAAAGGGGAAAAGGAAAGUAUUAUGUUACGCCGUUCGGAUCUGCACUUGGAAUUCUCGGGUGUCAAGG`, the log2 enrichment was 0.291.

Block 3
Target: Sal-like protein 4, full length isoform A (SALL4, Homo sapiens, UniProt Q9UJQ4, residues 1-1053)
UniProt Q9UJQ4, sequence (whole entry, looked up): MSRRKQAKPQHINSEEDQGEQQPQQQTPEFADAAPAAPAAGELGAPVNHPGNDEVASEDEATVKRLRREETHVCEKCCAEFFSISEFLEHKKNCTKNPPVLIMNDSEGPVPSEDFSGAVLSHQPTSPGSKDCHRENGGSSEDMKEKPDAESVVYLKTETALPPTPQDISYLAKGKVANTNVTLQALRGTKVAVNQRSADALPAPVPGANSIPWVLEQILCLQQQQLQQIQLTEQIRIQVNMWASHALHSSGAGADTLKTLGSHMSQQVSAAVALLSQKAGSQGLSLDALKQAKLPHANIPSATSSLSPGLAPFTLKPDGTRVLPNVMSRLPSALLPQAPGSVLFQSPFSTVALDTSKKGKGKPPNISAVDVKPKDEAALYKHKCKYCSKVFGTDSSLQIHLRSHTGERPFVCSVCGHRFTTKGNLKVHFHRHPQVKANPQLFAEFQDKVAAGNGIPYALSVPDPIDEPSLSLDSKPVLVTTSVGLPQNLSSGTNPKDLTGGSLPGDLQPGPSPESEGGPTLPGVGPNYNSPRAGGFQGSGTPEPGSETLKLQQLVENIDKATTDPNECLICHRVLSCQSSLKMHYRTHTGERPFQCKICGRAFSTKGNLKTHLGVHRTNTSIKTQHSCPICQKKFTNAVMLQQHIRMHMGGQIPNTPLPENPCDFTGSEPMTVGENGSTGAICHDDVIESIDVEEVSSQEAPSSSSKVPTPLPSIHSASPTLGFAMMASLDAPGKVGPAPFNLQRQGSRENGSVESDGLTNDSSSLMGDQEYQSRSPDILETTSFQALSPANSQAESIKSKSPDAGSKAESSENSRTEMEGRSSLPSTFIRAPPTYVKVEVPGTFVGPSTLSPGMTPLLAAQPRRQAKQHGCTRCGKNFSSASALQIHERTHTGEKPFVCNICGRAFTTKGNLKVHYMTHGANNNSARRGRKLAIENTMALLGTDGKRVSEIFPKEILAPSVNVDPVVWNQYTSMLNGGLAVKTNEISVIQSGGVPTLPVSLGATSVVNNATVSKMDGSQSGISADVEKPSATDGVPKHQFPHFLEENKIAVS
Technique: universal PBM
Form: double-stranded DNA, one strand shown
Matrix: in vitro
Tested at: 600 nM
Notes: 8-mer, flanks averaged, mean of replicates
Reading: higher = stronger binding
For `CCCTGCGA`, the E-score was -0.0943.
`ATCGACGA` gave an E-score of -0.0497.
With `AGGGTAAC` the E-score was -0.119.
`TGCGCAAA` has an E-score of 0.00411.
The E-score of `AGAGATAG` is reported as 0.146.
With `CACTGCTC` the E-score was -0.0907.
The E-score of `CCGCCTGA` is reported as -0.376.
`GTACCGTA` gave an E-score of 0.00312.
With `GTAGAGAC` the E-score was -0.0347.
`CTGTATTC` has an E-score of 0.144.
The E-score of `GCCGTAAA` is reported as -0.0469.
The E-score of `GTCACGGA` is reported as -0.208.
`ATCTTTCA` has an E-score of 0.169.
The E-score of `AGGATTGA` is reported as 0.204.
For `GTCCCGAA`, the E-score was -0.227.
With `GATCCCGA` the E-score was -0.207.
The E-score of `GGCTTTAA` is reported as 0.0873.

Block 4
Target: Phosphate system positive regulatory protein PHO4, full length, GST-tagged (PHO4, Saccharomyces cerevisiae, UniProt P07270, residues 1-312)
Technique: competition protein-binding microarray
Form: double-stranded DNA, one strand shown
Matrix: in vitro
Tested at: 2 µM
Notes: whole 60-bp probe, lowest competitor level
Added: Cbf1 competitor, 0.05 µM
Reading: higher = stronger binding
Construct (chain): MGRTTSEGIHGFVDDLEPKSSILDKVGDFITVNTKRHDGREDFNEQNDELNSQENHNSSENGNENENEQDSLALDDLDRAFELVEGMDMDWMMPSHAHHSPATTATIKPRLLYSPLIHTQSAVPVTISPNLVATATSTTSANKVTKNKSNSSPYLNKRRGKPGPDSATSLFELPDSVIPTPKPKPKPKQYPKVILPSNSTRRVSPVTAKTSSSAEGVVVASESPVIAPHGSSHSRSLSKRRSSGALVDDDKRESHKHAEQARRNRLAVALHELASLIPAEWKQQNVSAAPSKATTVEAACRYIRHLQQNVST
`CGGGGTTAAGTTTGTCACGTAACTTGCTTGCAGCAGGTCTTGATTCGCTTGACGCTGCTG` gave a fluorescence intensity of 4230 a.u.
With `GGTGGAAATAACAAAAGCGTGACGGCAAAGAAGCAAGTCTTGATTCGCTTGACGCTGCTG` the fluorescence intensity was 7440 a.u.
`CTTTTGATACTCAAATTCGTGCCGAACCGGGAAAGAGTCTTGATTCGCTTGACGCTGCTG` has a fluorescence intensity of 5410 a.u.
The fluorescence intensity of `CATACCCAACCTTGCTGAGTGGGTGAAGATATTTGTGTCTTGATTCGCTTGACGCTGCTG` is reported as 4380 a.u.
`CCAGGGCCAGAGGGGCACGTGGCGCCGGTGAGTGGCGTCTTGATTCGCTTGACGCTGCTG` has a fluorescence intensity of 21000 a.u.
`CGTCCTAGTGATTTTCACGTGAATTCCATGAGGAAGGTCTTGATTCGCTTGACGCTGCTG` gave a fluorescence intensity of 8460 a.u.
`ACCATATTGATTTCGCATGTGTCTCTGGTTCATCGGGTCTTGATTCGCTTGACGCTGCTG` gave a fluorescence intensity of 10500 a.u.
For `CTGGAACTAGATCGGCACGCAACTTTTGTGGGCGAGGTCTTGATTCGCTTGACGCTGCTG`, the fluorescence intensity was 6740 a.u.
For `CGTCCTAGTGATTGTCACTTGACTTCCATGAGGAAGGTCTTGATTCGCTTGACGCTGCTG`, the fluorescence intensity was 4010 a.u.
With `AAGTTACTGCCGCTTTACGTGTCTGTGACGGTGCTTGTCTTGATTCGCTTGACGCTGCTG` the fluorescence intensity was 4620 a.u.

Block 5
Target: ABI1, truncated, D143A, DHFR fusion (Arabidopsis thaliana)
Technique: DHFR PCA, deep sequencing
Matrix: yeast
Notes: methotrexate growth selection, single substitutions
Added: (+)-ABA 0.11 µM
Baseline: wild-type fitted maximum
Reading: higher = stronger binding
Parent: PYL1, truncated, DHFR fusion (Arabidopsis thaliana); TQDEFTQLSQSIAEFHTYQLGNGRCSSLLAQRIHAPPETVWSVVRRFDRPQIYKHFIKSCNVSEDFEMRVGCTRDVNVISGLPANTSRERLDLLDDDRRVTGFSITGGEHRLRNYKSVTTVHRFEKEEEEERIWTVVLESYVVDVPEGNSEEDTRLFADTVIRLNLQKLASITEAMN
Under “relative binding score”, `E147I` is recorded as 8.74%.
`I133T` — result for “relative binding score”: 41.7%.
For `D3H`, “relative binding score” read 30.3%.
For `S9W`, “relative binding score” read 19.2%.
For `E67S`, “relative binding score” read 20.6%.
`E152Y` — result for “relative binding score”: 9.84%.
`F124A`: “relative binding score” 12.8%.
Under “relative binding score”, `N85I` is recorded as 68.1%.
Under “relative binding score”, `R69Q` is recorded as 35.9%.
`E64C` — result for “relative binding score”: 15.2%.
Under “relative binding score”, `V143I` is recorded as 0.46%.
For `N77D`, “relative binding score” read 36.5%.
`E147L` — result for “relative binding score”: 21.5%.
Under “relative binding score”, `C60V` is recorded as 43.3%.
For `D3A`, “relative binding score” read 36.9%.

Block 6
Target: CCNA1, cyclin fold, Cln2 fusion (human)
Technique: yeast growth competition, sequencing
Matrix: yeast
Notes: weak parent motif
Baseline: not given
Reading: higher = stronger binding
Parent: MASTL docking peptide (human); PMIAKNLMCELDE
Under “normalised enrichment score”, `PMIAKNNMCELDE [L7N]` is recorded as -0.0139.
`PMIAKNWMCELDE [L7W]` — result for “normalised enrichment score”: -0.0249.
`PMIAVNLMCELDE [K5V]`: “normalised enrichment score” -0.24.
For `PMIAKNAMCELDE [L7A]`, “normalised enrichment score” read 0.0705.
For `PMIAKNLMCESDE [L11S]`, “normalised enrichment score” read -0.0226.
Under “normalised enrichment score”, `PMITKNLMCELDE [A4T]` is recorded as 0.0964.
`PRIAKNLMCELDE [M2R]` — result for “normalised enrichment score”: 0.214.
`PMIAINLMCELDE [K5I]`: “normalised enrichment score” 0.059.
Under “normalised enrichment score”, `PMIQKNLMCELDE [A4Q]` is recorded as -0.402.
`PSIAKNLMCELDE [M2S]`: “normalised enrichment score” 0.46.
Under “normalised enrichment score”, `PMIYKNLMCELDE [A4Y]` is recorded as -0.188.
Under “normalised enrichment score”, `PMIAWNLMCELDE [K5W]` is recorded as 0.0161.
For `PMIAYNLMCELDE [K5Y]`, “normalised enrichment score” read -0.133.
